Measurements pooled from the literature.
“And” joins repeats or separate records; there may be more than shown. Numbers after ± are the reported error.

For `Oc1nc2nonc2cc1Nc1c(F)c(F)c(F)c(F)c1F`, “fat mass gain reduction” read 59% (Western diet-fed mice; in diet, dose not given; baseline: untreated).
`N#Cc1ccc2c(-c3ccncc3)c(-c3ccc(F)cc3)nn2c1`: “log2 fold change” 0.0853 (kinase binding, competitor, MIB/MS competition, item: HSL1; Candida albicans cell lysate; 1 µM; baseline: DMSO).
`OC(CCN1CCCCC1)(c1ccccc1)C1CC2C=CC1C2` (stereo not drawn): “EEG power, delta, Fz-Cz” 9.7 µV² (resting-state EEG; healthy elderly humans; oral, 4 mg, eyes open, LS mean).
With `Oc1ccc(/C=C/c2cc(O)cc(O)c2)cc1` the AST/ALT ratio was 1.84 and 1.8 and 2.15 and 1.7 and 1.77 (Mus musculus, chronic-plus-binge ethanol, plasma; dose not given).
For `Cc1n[nH]c2ccc(-c3cc(OC[C@@H](N)Cc4ccccc4)cnc3-c3ccoc3)cc12`, “log2 fold change” read -0.67 (kinase binding, competitor, MIB/MS competition, item: HSL1; Candida albicans cell lysate; 10 µM; baseline: DMSO).
Under “tumour growth inhibition”, `C=CCn1c(=O)c2cnc(Nc3ccc(N4CCN(C)CC4)cc3)nc2n1-c1ccc2c(n1)[C@@](O)(CC)CC2` is recorded as 49.9% (AN3-CA xenograft, BALB/c nude mice; oral, 80 mg/kg, day 12, once daily x 15).
Under “log2 fold change”, `c1ccc(-c2n[nH]cc2-c2ccnc3ccccc23)nc1` is recorded as 1.46 (kinase binding, competitor, MIB/MS competition, item: TPK2; Candida albicans cell lysate; 1 µM; baseline: DMSO).
`CO[C@H]1CC[C@H](N2C(=O)CNc3ncc(-c4ccc(C(C)(C)O)nc4)nc32)CC1` — result for “pS6RP change from baseline”: -30% (flow cytometry; stimulated B cells, human, blood; 45 mg single dose, 24 h, mean; baseline: baseline).
`NCC(=O)Nc1cncc(-c2nn3c(=O)cc(N4CCNCC4)nc3s2)c1` gave an inhibition of 48.9% (ADP-induced platelet aggregation, light transmission aggregometry; human, stable CAD on aspirin, platelets ex vivo; subcutaneous, 0.075 mg/kg, 90 min post-dose, with: ADP 20 µM).
With `COc1ccc(C2=N[C@@H](c3ccc(Cl)cc3)[C@@H](c3ccc(Cl)cc3)N2C(=O)N2CCNC(=O)C2)c(OC(C)C)c1` the necrotic area was 13.6% and 15.4% and 11.7% and 10.3% and 7.4% (histology; Dmd C3333Y mice, gastrocnemius; dose not given).
`CN[C@@H]1COc2c(S(=O)(=O)NC(=O)Nc3c4c(cc5c3CCC5)CCC4)cnn2C1` has an inhibition of 102% (item: IL-18; human participants, whole blood ex vivo; 450 mg single dose, 4 h, IL-18, circulating, adjusted for, with: LPS/ATP; baseline: baseline).
`O=C1c2ccncc2C(=O)c2c1[nH]c1ccccc21`: “medial thickness of small pulmonary arteries” “decreased” (decreased; rat, female, monocrotaline PAH model, lung; intravenous, 1 mg/kg every 48 h, days 17-27; baseline: monocrotaline plus saline).
Under “mean CMAP amplitude difference”, `C[C@H](Oc1ccc(Br)cc1-c1ccon1)C(=O)O` is recorded as -0.1 mV (muscle velocity recovery cycles; human, tibialis anterior muscle; 400 mg twice daily; baseline: placebo).
`O=C(O)C1=CC(=C(c2ccc(O)c(C(=O)O)c2)c2ccc(O)c(C(=O)O)c2)C=CC1=O` — result for “CD8+ T cells in CD3+”: “increased” (flow cytometry; C57BL/6J mouse MC-38 tumour, tumour-infiltrating lymphocytes; peritumoral, dose not given, 2 cycles; baseline: vehicle).
Under “mean fold change”, `CCN(Cc1nc2c(N)nc3cc(-c4cc[nH]n4)ccc3c2[nH]1)C(C)=O` is recorded as 2.2 (immunohistochemistry, item: MPO+ TANs; patients with advanced solid tumours, injected tumour lesions; dose not given, monotherapy; baseline: baseline).
`CC(C)NCC(O)c1ccc(O)c(O)c1` (stereo not drawn) gave a sarcomere length of 1.72 µm (ventricular cardiomyocytes, C57BL/6 mouse; dose not given, 0.336 s).
`Cc1sc2c(c1C)C(c1ccc(Cl)cc1)=N[C@@H](CC(=O)NCCCCCCCCNC(=O)COc1cccc3c1C(=O)N(C1CCC(=O)NC1=O)C3=O)c1nnc(C)n1-2` (stereo partly drawn) — result for “CD8+ T cells”: 6.8% and 10.5% (flow cytometry; 4T1 tumour-bearing mice, spleen; dose not given).
For `O=C(O)CCC(=O)O.[2H]C([2H])([2H])Oc1cc(C)c2[nH]ccc2c1CN1CC[C@@H](C2CC2)C[C@H]1c1ccc(C(=O)O)cc1`, the inhibition was greater than 80% (alternative complement pathway activity, Wieslab ELISA; healthy humans, nearly all subjects, serum; 200 mg once daily, trough, multiple doses).
The hazard ratio of `O=C1CCc2ccc(OCCCCN3CCN(c4cccc(Cl)c4Cl)CC3)cc2N1` is reported as 2.17 (item: stopping or switching; patients CYP2D6 extreme phenotypes; dose not given, 6 months; baseline: IM versus NM).
`NC(=O)c1cnc2[nH]ccc2c1N[C@@H]1[C@@H]2CC3C[C@H]1C[C@@](O)(C3)C2`: “change from baseline” -0.12% (flow cytometry, item: CD8+ central memory T cells; Japanese healthy subjects, peripheral blood; oral, 100 mg twice daily, day 4).
`O=C1Nc2cc3[nH]nc(-c4ccncc4)c3cc2CN1Cc1ccccc1`: “partial response, best response” 0% (RECIST v1.1; human, relapsed or refractory advanced solid tumours; intravenous, 7.2 mg/kg).
For `Cn1cc(Nc2nccc(-c3ccc4c(c3)CN(C3COC3)CC[C@H]4NC(=O)c3cn(C(C)(C)C)nn3)n2)cn1`, “pathway activation z-score” read -2.24 (item: folate transformations I; splenic B cells, mice; 30 mg/kg, IgD-activated in vivo; baseline: vehicle, direction not given).
Under “nerve-stimulated isometric force”, `COc1ccc(C[C@@H]2c3cc(OC)c(OC)cc3CC[N@+]2(C)CCC(=O)OCCCCCOC(=O)CC[N@@+]2(C)CCc3cc(OC)c(OC)cc3[C@H]2Cc2ccc(OC)c(OC)c2)cc1OC` is recorded as 5.9 and 8.4 and 6.3 (rat, isolated soleus nerve-muscle preparation; 1 µM, unit not given; baseline: control).
For `COc1ccccc1[C@H](Cn1c(=O)n(C(C)(C)C(=O)O)c(=O)c2c(C)c(-c3ncco3)sc21)OC1CCOCC1`, “fractional hepatic DNL” read 8.63 % new palmitate ([1-13C]acetate infusion, isotopomer analysis; overweight or obese healthy men, plasma VLDL-TG palmitate; oral, 200 mg single dose, 10 h post-dose, with: oral fructose).
`CC1(C)CCC(CN2CCN(c3ccc(C(=O)NS(=O)(=O)c4ccc(NCC5CCOCC5)c([N+](=O)[O-])c4)c(Oc4cnc5[nH]ccc5c4)c3)CC2)=C(c2ccc(Cl)cc2)C1` has an EC50 of 2.4 nM (cell killing; canine lymph node CD3+ T cells, dog 30; 24 h).
`C[C@H]1C[C@H]2CSC(N)=N[C@@]2(c2nc(NC(=O)c3ccc(OC(F)F)cn3)cs2)CO1`: “percent change from baseline” -67% (item: Aβx-40; healthy adults, plasma; 400 mg single dose, 48 h post-dose; baseline: placebo).
Under “change in fasting glucose”, `N#Cc1ccc2c(c1)[C@H]1CCCN(C(=O)c3ccc4[nH]cnc4c3)[C@H]1C2` is recorded as 1.2% (human, plasma; 20 mg, day 15, 360 h; baseline: placebo and baseline).
With `CN(C(=O)n1cnc(-c2ccc[n+]([O-])c2)c1)C1CCCCC1` the AUC(0-t) was 385 ng·h/mL (item: PEA; human, plasma; 100 mg single dose).
`Cn1cc([C@H]2C[C@H]3CSC(N)=N[C@@]3(c3ccc(F)cc3F)CO2)cn1` — result for “brain Aβ40 level”: 3.01 ng/g (item: Aβx-40; wild-type mouse, brain; subcutaneous, 10 mg/kg, 9 h).
For `N#Cc1ccn2c(-c3ccncc3)c(-c3ccc(F)cc3)nc2c1`, “log2 fold change” read -0.774 (kinase binding, competitor, MIB/MS competition, item: NIK1; Candida albicans cell lysate; 1 µM; baseline: DMSO).
Under “best overall response”, `COc1ncc(-c2nc3c(n2C(C)C)[C@H](c2ccc(Cl)cc2)N(c2cc(Cl)cn(C)c2=O)C3=O)c(OC)n1` is recorded as 83.3% (International Working Group criteria; human acute myeloid leukemia patients; oral, 150 mg, response TF, high-dose, other doses).
The aPTT Emax of `C[C@@H](NC(=O)N1C(=O)[C@H](Cc2ccnc(N)c2)[C@H]1C(=O)O)C1CCCCC1` is reported as 56.8 s (human; iv infusion, 1.5 mg/kg/h, 24 h).
The sarcomere length of `O=C(O)CNC(=O)Cc1ccccc1` is reported as 1.7 µm (ventricular cardiomyocytes, C57BL/6 mouse; dose not given, 0.624 s).
Under “number of increased sphingolipids”, `CCCCCN1C[C@H](O)[C@@H](O)[C@H](O)[C@@H]1CO` is recorded as 9 (mouse Hexb-/-, plasma; 300 mg/kg/day; baseline: untreated Hexb-/- mice).
`CC(=O)Oc1cc2c(s1)CCN(C(C(=O)C1CC1)c1ccccc1F)C2` (stereo not drawn): “patients with IPA above threshold” 0% (platelet aggregation, light transmittance aggregometry; human, platelet-rich plasma; 15 min, IPA above 90 %, with: TRAP 15 µM; baseline: patients).
For `Cc1oncc1C(=O)Nc1ccc(C(F)(F)F)cc1`, the DHO concentration was 3.32 ± 0.127 µM (item: dihydroorotate; female CD-1 mice, blood; oral, 10 mg/kg daily, 8 h after dose 1, 10-day dosing).
For `C[C@]12CC[C@@H]3c4ccc(O)cc4CC[C@H]3[C@@H]1CC[C@@H]2O`, the mRNA level was 0.0771 (RT-qPCR, item: CO; Arabidopsis thaliana ING1:FLAG seedlings; 20 µM, 6 h after treatment, sampled at ZT12, replicate rep3, unit not given; baseline: TUB2).
The glucose AUEC of `CC(C)(C)OC[C@@H]1C(=O)NCCN1C(=O)C[C@H](N)Cc1cc(F)c(F)cc1F` is reported as 345 ± 40.2 mg·h/dL (healthy Korean men, blood; oral, dose not given, 2 h, steady state OGTT).
`N#Cc1ccc2c(c1)[C@H]1CCCN(C(=O)c3ccc4[nH]cnc4c3)[C@H]1C2` — result for “change from baseline”: -14 nmol/L (item: cortisol; human, Phase II trial; oral, 240 mg once daily, HPA axis, mean).
For `Oc1ccc(Br)cc1C=NCCN1CCOCC1`, the inhibition was 28.7% (nitric oxide scavenging; 160 µM).
With `CCCCC1(CCCC)CN(c2ccccc2)c2cc(SC)c(OCC(=O)N[C@@H](C(=O)NCC(=O)O)c3ccccc3)cc2S(=O)(=O)C1` the plasma C4 was 45.3 ng/mL (item: 7α-hydroxy-4-cholesten-3-one; human, plasma; 2.5 mg once daily, day 7).
With `O=P(O)(O)C(Cl)(Cl)P(=O)(O)O` the Iba1-positive area was 2.78% and 3.01% and 2.79% (Mus musculus, subarachnoid haemorrhage, meninges; concentration not given, day 7; baseline: total area).
The plasma TC of `COc1cc(/C=C/C(=O)CC(=O)/C=C/c2ccc(O)c(OC)c2)ccc1O` is reported as 4.04 ± 0.42 mmol/L (high-fat diet hyperlipidaemic rat; oral, 200 mg/kg daily, 4 weeks).
For `COc1ccc(-c2cncc(N[C@@H](C)c3cccc(NC(=O)c4cncc(C)c4)c3)n2)cc1OC`, the fold change was 2.5 (item: rno-miR-136-5p; rat SU5416/hypoxia model, lung; dose not given; baseline: SU5416/hypoxia vehicle).
`CC[C@H](C)[C@H](NC(=O)[C@H](C)NC(=O)CNC(=O)[C@H](Cc1ccccc1)NC(=O)[C@H](CC(N)=O)NC(=O)[C@H](CC(N)=O)NC(=O)[C@H](CO)NC(=O)[C@H](CO)NC(=O)[C@H](Cc1c[nH]cn1)NC(=O)[C@@H](NC(=O)[C@H](CC(C)C)NC(=O)[C@H](Cc1ccccc1)NC(=O)[C@H](CC(N)=O)NC(=O)[C@H](C)NC(=O)[C@H](CC(C)C)NC(=O)[C@H](CCCNC(=N)N)NC(=O)[C@H](CCC(N)=O)NC(=O)[C@@H](NC(=O)[C@H](C)NC(=O)[C@@H]1CSSC[C@H](NC(=O)[C@@H](N)CCCCN)C(=O)N[C@@H](CC(N)=O)C(=O)N[C@@H]([C@@H](C)O)C(=O)N[C@@H](C)C(=O)N[C@@H]([C@@H](C)O)C(=O)N1)[C@@H](C)O)C(C)C)C(=O)N[C@@H](CC(C)C)C(=O)N[C@@H](CO)C(=O)N[C@@H](CO)C(=O)N[C@H](C(=O)N[C@@H](CC(N)=O)C(=O)N[C@H](C(=O)NCC(=O)N[C@@H](CO)C(=O)N[C@@H](CC(N)=O)C(=O)N[C@H](C(=O)N[C@@H](Cc1ccc(O)cc1)C(N)=O)[C@@H](C)O)C(C)C)[C@@H](C)O` has an insulin secretion of roughly 16.4% (isolated mouse islets; 10 µM, 24 h, with: 1.6 mM glucose (low); baseline: control).

For quick reference, copied from above:
`CC(=O)Oc1cc2c(s1)CCN(C(C(=O)C1CC1)c1ccccc1F)C2` (stereo not drawn): “patients with IPA above threshold” 0% (platelet aggregation, light transmittance aggregometry; human, platelet-rich plasma; 15 min, IPA above 90 %, with: TRAP 15 µM; baseline: patients).
For `Cc1oncc1C(=O)Nc1ccc(C(F)(F)F)cc1`, the DHO concentration was 3.32 ± 0.127 µM (item: dihydroorotate; female CD-1 mice, blood; oral, 10 mg/kg daily, 8 h after dose 1, 10-day dosing).
For `C[C@]12CC[C@@H]3c4ccc(O)cc4CC[C@H]3[C@@H]1CC[C@@H]2O`, the mRNA level was 0.0771 (RT-qPCR, item: CO; Arabidopsis thaliana ING1:FLAG seedlings; 20 µM, 6 h after treatment, sampled at ZT12, replicate rep3, unit not given; baseline: TUB2).
The glucose AUEC of `CC(C)(C)OC[C@@H]1C(=O)NCCN1C(=O)C[C@H](N)Cc1cc(F)c(F)cc1F` is reported as 345 ± 40.2 mg·h/dL (healthy Korean men, blood; oral, dose not given, 2 h, steady state OGTT).
